Experimental data of several laboratories.
Values joined by “and” are separate records of one study, mostly repeats; a detail may differ.
Target: MAP/microtubule affinity-regulating kinase 3 (MARK3, Homo sapiens, UniProt P27448)

Compound = Nc1ncc2c(n1)-c1c([nH]c3ccc(C4=CCOCC4)cc13)CCC2; assay = binding, competition with immobilised ligand; conditions = 1 µM; endpoint = remaining binding; result = 100%
Compound = CN1CCN(Cc2ccc(NC(=O)c3cccc(C#Cc4cnc(N)c5ncccc45)c3)cc2C(F)(F)F)CC1; assay = cell-free assay, competition with immobilised ligand; conditions = 0.5 µM; endpoint = remaining binding; result = 75%
Compound = C=CC(=O)N1Cc2nc(-c3cc(-c4cc(Cl)cnc4Cl)c(F)cc3F)n(-c3ccncn3)c2C1; assay = cell-free assay, inhibitor; conditions = 1 µM; endpoint = inhibition; result = 8.6%
Compound = C=CC(=O)Nc1cccc(-c2cnc3[nH]cc(C(=O)NC(C)(C)C)c3n2)c1; assay = kinase activity; conditions = 0.1 µM; endpoint = inhibition; result = 51% and 44%
Compound = COc1ccc(NC(=O)Nc2ccc3c(c2)C(=O)N(C(C)CO)CC(C)C(CN(C)Cc2ccc4c(c2)OCO4)O3)cc1 (stereo not shown); assay = binding, competition with immobilised ligand; conditions = 10 µM; endpoint = remaining binding; result = 100%
Compound = Cc1ccc(-c2c(/C=C(\C#N)C(=O)NC(C)C)n(CCCO)c3ncnc(N)c23)cc1; assay = cell-free assay, competition with immobilised ligand; conditions = 1 µM; endpoint = remaining binding; result = 100%
Compound = Nc1nc(Nc2ccccc2)sc1C(=O)c1ccccc1; assay = enzyme activity, inhibitor; conditions = 10 µM; endpoint = remaining activity; result = 34%
Compound = c1ccc2c(Nc3cc(C4CCC4)[nH]n3)nc(Nc3ccc4nc[nH]c4c3)nc2c1; assay = enzyme activity, inhibitor; conditions = 0.25 µM; endpoint = remaining activity; result = 2%
Compound = CC(C)=CC1OC(C)(C)C2C=C3C(=O)C(Cl)=CC(O)C3C3C(O)C4OC4C(=O)C132 (stereo not shown); assay = cell-free assay, competition with immobilised ligand; conditions = 10 µM; endpoint = remaining binding; result = 100%
Compound = C=CC(=O)Nc1cc(-c2nn(C3CCN(CCNC(=O)[C@H](C)CCC45CC6CC(CC(C6)C4)C5)CC3)c3ncnc(N)c23)ccc1Oc1ccccc1; assay = inhibitor, KiNativ profiling; system = biochemical; conditions = 2 µM; endpoint = inhibition; result = 10.7%
Compound = Cc1cccc(O[C@H]2CCC[C@@H](C(C)CNCc3ccncc3)C2)c1 (relative stereo); assay = enzyme activity, inhibitor; conditions = 1 µM; endpoint = inhibition; result = -4%
Compound = CN1CC[C@@H](COc2cnc(C#N)cc2-c2ccn3nc(NC(=O)C4CC4)cc3c2)C1; assay = enzyme activity, inhibitor; conditions = 1 µM; endpoint = inhibition; result = 6%
Compound = NC(=O)C[C@H]1CCc2sc3ncnc(O[C@H]4CC[C@H](N5CCOCC5)CC4)c3c21; assay = enzyme activity, inhibitor; conditions = 10 µM; endpoint = inhibition; result = 1%
Compound = CCn1cc(C(=O)O)c(=O)c2c(N)c(F)c(NC3CCCCC3)cc21; assay = kinase activity; conditions = 0.1 µM, added: ATP at Km; endpoint = inhibition; result = -7.4%
Compound = C=CC(=O)N1CCc2ccc(-n3c(=O)ccc4cnc5ccc(-c6cnn(C)c6)cc5c43)cc21; assay = KINOMEscan; conditions = 1 µM; how to read = baseline: DMSO control; endpoint = remaining binding; result = 100%
Compound = Cc1ccc(C)c(-c2ccc3nc(NC(=O)C4CCCCC4)nn3c2)c1; assay = enzyme activity, Dundee kinase panel; conditions = 10 µM; endpoint = remaining activity; result = 90%
Compound = CC(=O)N1c2ccc(-c3ccc(CNC(=O)c4cn5cc(-c6cnc(N)nc6)nc(N6CCOCC6)c5n4)cc3)cc2CC[C@@H]1C; assay = KINOMEscan; conditions = 10 µM; endpoint = remaining binding; result = 92%
Compound = Cc1cccc(-c2ccc3nc(NC(=O)C4CCCO4)nn3c2)c1 (stereo not shown); assay = enzyme activity, Dundee kinase panel; conditions = 10 µM; endpoint = remaining activity; result = 86%
Compound = COc1c(Cl)cccc1Nc1c(-c2ccncc2C#C[C@@]2(C)CCCN2C(=O)/C=C/CN(C)C)[nH]c2c1C(=O)NCC2; assay = binding, competition with immobilised ligand; conditions = 3 µM; endpoint = remaining binding; result = 93%

Some of these lines once more:
Compound = Cc1ccc(C)c(-c2ccc3nc(NC(=O)C4CCCCC4)nn3c2)c1; assay = enzyme activity, Dundee kinase panel; conditions = 10 µM; endpoint = remaining activity; result = 90%
